Published values of several laboratories.
Compare with care: the assays were run in different laboratories. ± gives the spread as reported.
Sequence of UniProt Q92995 (whole entry, looked up): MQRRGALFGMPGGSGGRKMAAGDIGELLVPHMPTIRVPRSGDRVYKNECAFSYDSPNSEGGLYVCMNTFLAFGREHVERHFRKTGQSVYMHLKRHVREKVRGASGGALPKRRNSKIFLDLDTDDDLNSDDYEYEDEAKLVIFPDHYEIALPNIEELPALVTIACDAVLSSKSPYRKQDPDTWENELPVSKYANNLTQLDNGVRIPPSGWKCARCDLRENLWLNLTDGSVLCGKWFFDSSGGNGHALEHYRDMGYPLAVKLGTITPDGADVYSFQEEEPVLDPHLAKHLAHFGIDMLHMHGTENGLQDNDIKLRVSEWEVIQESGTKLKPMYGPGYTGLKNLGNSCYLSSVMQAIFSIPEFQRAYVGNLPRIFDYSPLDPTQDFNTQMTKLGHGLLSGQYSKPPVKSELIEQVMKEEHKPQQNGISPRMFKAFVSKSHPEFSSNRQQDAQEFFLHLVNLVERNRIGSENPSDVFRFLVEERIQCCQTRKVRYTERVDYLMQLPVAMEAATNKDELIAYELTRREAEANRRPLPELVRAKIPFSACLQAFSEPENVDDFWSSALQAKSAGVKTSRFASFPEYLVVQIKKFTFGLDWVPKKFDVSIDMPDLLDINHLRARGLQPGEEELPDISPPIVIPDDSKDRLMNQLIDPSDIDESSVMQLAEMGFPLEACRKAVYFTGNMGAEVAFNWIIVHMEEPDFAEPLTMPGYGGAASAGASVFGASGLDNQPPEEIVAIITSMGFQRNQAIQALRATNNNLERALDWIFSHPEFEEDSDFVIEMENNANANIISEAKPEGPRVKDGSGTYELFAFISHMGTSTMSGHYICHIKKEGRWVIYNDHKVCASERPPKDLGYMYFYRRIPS
Sequence of UniProt Q9UBN7 (whole entry, looked up): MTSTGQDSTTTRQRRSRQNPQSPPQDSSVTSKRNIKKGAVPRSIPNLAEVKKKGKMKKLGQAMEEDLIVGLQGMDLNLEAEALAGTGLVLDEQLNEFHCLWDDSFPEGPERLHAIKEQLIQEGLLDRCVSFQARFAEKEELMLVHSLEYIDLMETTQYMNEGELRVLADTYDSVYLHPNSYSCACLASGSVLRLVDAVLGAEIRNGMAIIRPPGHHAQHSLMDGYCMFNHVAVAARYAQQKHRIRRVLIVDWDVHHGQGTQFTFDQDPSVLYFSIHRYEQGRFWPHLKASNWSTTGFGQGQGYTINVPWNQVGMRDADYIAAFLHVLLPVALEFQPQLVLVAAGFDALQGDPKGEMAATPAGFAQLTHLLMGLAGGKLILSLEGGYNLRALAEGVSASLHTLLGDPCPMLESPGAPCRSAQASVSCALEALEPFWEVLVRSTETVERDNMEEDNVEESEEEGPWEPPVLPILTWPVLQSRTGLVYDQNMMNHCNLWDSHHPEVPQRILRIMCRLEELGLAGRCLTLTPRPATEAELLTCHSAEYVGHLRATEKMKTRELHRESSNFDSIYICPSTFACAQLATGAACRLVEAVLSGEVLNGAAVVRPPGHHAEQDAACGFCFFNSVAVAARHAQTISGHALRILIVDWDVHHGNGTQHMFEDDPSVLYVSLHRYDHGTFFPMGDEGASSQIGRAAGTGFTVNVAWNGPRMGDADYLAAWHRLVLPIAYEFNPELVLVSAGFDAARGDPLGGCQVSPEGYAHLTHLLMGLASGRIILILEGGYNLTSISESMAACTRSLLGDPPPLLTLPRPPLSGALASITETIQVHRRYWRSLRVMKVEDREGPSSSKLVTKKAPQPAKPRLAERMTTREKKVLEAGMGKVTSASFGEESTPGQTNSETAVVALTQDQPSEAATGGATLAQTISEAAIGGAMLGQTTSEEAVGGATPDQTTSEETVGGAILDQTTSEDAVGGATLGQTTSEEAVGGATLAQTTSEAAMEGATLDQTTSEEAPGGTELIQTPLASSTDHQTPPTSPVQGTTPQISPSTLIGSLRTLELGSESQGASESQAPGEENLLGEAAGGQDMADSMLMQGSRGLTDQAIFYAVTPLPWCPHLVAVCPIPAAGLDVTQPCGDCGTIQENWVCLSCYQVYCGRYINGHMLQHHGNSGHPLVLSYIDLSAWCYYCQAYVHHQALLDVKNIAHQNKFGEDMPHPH

CN(C)[C@@H]1CCN(C2=NC(=O)/C(=C\c3ccccc3O)S2)C1
EC50 (NG108-15; intracellular chloride reduction, Clomeleon fluorescence; 5 h): 1130 nM

CC(=O)Nc1nnc(N2CCN([C@@H](C)c3ccc4c(c3)OCO4)CC2)s1
EC50 (PBMC; protein O-GlcNAcylation; human whole blood ex vivo; 2 h, average of 7 donors): 1980 nM

O=C(c1cc(Cc2n[nH]c(=O)c3ccccc23)ccc1F)N1CCN(C(=O)C2CC2)CC1
EC50 (CAPAN-1 (BRCA2-deficient); cell proliferation, CellTiter-Glo; 168 h): 310 nM

COc1ccc(C2CC(c3ccccc3Cl)Nc3nc(N)nn32)cc1OC (stereo not drawn)
EC50 (MEF with TRE-FLAG-LMNB1; LMNB1 reduction, high-content screening): > 250000 nM

O=C1N=C(N2CCCCC2)S/C1=C\c1ccccc1O
EC50 (NG108-15; intracellular chloride reduction, Clomeleon fluorescence; 5 h): 31500 nM

COc1cccc(C2CC(c3ccccc3Cl)Nc3ncnn32)c1 (stereo not drawn)
EC50 (MEF with TRE-FLAG-LMNB1; LMNB1 reduction, high-content screening): > 150000 nM

O=C(O)COc1cnc2ccccc2n1
Kd (Protein deacetylase HDAC6, ZnF-UBD domain (HDAC6, Homo sapiens, UniProt Q9UBN7)): > 1000 µM

Cc1c(CNC(=O)c2nn3c(c2Cl)N[C@@H](c2ccccc2)C[C@@H]3C(F)(F)F)cnn1C
EC50 (MEF with TRE-FLAG-LMNB1; LMNB1 reduction, high-content screening): > 250000 nM

CCCN(c1ccc(OC)cc1)S(=O)(=O)C1CC2OC1C(c1ccc(O)cc1)=C2c1ccc(O)cc1 (stereo not drawn)
EC50 (MCF7 3xERE-luc, steroid-deprived; ERE luciferase reporter, agonist): 316 nM

N#Cc1[nH]nnc1-c1cccc(-c2cc(F)cc(C(F)(F)F)c2)c1
EC50 (CHO cells expressing NaCT; TCA cycle acceleration, activator, [14C]citric acid metabolism): 340 nM

C[C@]12CC[C@@H]3c4ccc(O)cc4C[C@@H](CCCCCCCCC[S+]([O-])CCCC(F)(F)C(F)(F)F)[C@H]3[C@@H]1CC[C@@H]2O (stereo partly drawn)
EC50 (MCF7 3xERE-luc, steroid-deprived; ERE luciferase reporter, agonist): 0.0794 nM

COc1cnc2cccc(N3CCc4c(cc(Cn5ccnc5C)cc4-c4cn(C)nc4C(F)(F)F)C3=O)c2c1
EC50 (LS-513; cell growth, inhibitor; 120 h): 1990 nM

COc1ccc(C2CC(c3ccc(Cl)cc3Cl)Nc3nc(N)nn32)cc1OC (stereo not drawn)
EC50 (MEF with TRE-FLAG-LMNB1; LMNB1 reduction, high-content screening): > 167000 nM

O=C(O)CCc1cn2cccnc2n1
Kd (Ubiquitin carboxyl-terminal hydrolase 13, ZnF-UBD domain (USP13, Homo sapiens, UniProt Q92995)): 833 µM

Cn1cc(-c2ccc(-c3cncc(Cl)c3N3CCC4(CCNC4=O)CC3)cc2)cn1
fold change in expression (COLO 205; microarray, measured: ATF-3; concentration not given, 4 h; baseline: untreated cells): 2.11

c1ccc(Oc2ccc(Nc3ccc4ncc(OCC5CCNCC5)nc4c3)cc2)cc1
EC50 (Kasumi-1; cell growth, XTT; 7 days): 830 ± 130 nM

CCn1cc(-c2cc(Cn3ccnc3)cc3c2CCN([C@H](c2cc(OC)ccn2)C2CC2)C3=O)c(C(F)(F)F)n1
EC50 (KP-4; cell growth, inhibitor; 120 h): 300 nM

CN1CCN(C2=NC(=O)/C(=C/c3ccccc3O)S2)CC1
EC50 (NG108-15; intracellular chloride reduction, Clomeleon fluorescence; 5 h): 1570 nM

C[C@]12CCCN1CC1=NNC(=O)c3cc(F)cc4[nH]c2c1c34
EC50 (CAPAN-1 (BRCA2-deficient); cell proliferation, CellTiter-Glo; 168 h): 960 nM

CCn1cc(-c2cc(Cn3ccoc3=N)cc3c2CCN([C@@H](C)c2cc(OC)ccn2)C3=O)c(C(F)(F)F)n1
EC50 (JHOM1; cell growth; 120 h): 14.1 nM

c1cc(N2CCCCC2)ccc1Nc1cc2ncc(OCC3CCNCC3)nc2cc1-c1ccc(N2CCCCC2)cc1
EC50 (Kasumi-1; cell growth, XTT; 7 days): 3400 ± 70 nM

O=C1N=C(N2CCCCC2)S/C1=C\c1cc(C(=O)O)ccc1O
EC50 (NG108-15; intracellular chloride reduction, Clomeleon fluorescence; 5 h): 10100 nM

COc1ccccc1NC(=S)N[C@@H](NC(=O)c1cccc(Br)c1)C(Cl)(Cl)Cl
EC50 (MEF with TRE-FLAG-LMNB1; LMNB1 reduction, high-content screening): > 250000 nM

c1cc(N2CCCC2)ccc1-c1cc2ncc(OCC3CCNCC3)nc2cc1-c1ccc(N2CCCC2)cc1
EC50 (Kasumi-1; cell growth, XTT; 7 days): 8500 ± 320 nM

Some of these lines once more:
COc1ccc(C2CC(c3ccccc3Cl)Nc3nc(N)nn32)cc1OC (stereo not drawn)
EC50 (MEF with TRE-FLAG-LMNB1; LMNB1 reduction, high-content screening): > 250000 nM
